Results collected from several papers.
A part holds a random share of what one study measured. Substitutions count along the parent as printed.

Sample 1
Target: CCND1, cyclin fold, Cln2 fusion (human)
Method: yeast growth competition, sequencing
Sample: yeast
Setting: weak parent motif
Baseline: not given
Reading: higher = stronger binding
Starting sequence: E2F1 docking peptide (human); PPVKRRLDLETDH; partner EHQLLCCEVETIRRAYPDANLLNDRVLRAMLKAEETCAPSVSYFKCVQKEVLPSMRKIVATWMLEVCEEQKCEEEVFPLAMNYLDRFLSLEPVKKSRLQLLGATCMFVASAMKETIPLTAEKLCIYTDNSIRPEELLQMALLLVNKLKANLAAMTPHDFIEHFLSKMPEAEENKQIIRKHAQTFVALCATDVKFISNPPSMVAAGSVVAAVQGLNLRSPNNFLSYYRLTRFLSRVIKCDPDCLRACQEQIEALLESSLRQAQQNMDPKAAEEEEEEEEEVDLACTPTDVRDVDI
Variant	normalised enrichment score
PPVKPRLDLETDH [R5P]	-0.0195
PPVKYRLDLETDH [R5Y]	0.645
PPVKRPLDLETDH [R6P]	0.0555
PWVKRRLDLETDH [P2W]	-0.336
PPVKRRCDLETDH [L7C]	0.109
PPVKRRLVLETDH [D8V]	0.798
WPVKRRLDLETDH [P1W]	0.651
PPVKRRPDLETDH [L7P]	-0.218
PPVKRRLDLETDT [H13T]	1.1
PPVKRRNDLETDH [L7N]	0.113
PPVKRRLDLSTDH [E10S]	-0.0908
PPVKRALDLETDH [R6A]	0.487
PPDKRRLDLETDH [V3D]	0.7
PPVKRRQDLETDH [L7Q]	-0.277
PPYKRRLDLETDH [V3Y]	0.321
PPFKRRLDLETDH [V3F]	0.246
PPVKRYLDLETDH [R6Y]	0.284
PPVKRRLGLETDH [D8G]	0.297

Sample 2
Target: RING finger protein unkempt homolog, zinc fingers 1-6, GST-SBP tag (UNK, Homo sapiens, UniProt Q9C0B0, residues 30-357)
Method: RNA Bind-n-Seq
Form: RNA
Sample: in vitro
Tested at: not given
Setting: RNA with constant flanks, human-mouse chimeric sites, ends assumed
Baseline: input RNA pool
Reading: higher = stronger binding
Shared flanks, not repeated: GGGAGUUCUACAGUCCGACGAUC … CAACAGAGGAUUGAGCAUCA
Construct (chain): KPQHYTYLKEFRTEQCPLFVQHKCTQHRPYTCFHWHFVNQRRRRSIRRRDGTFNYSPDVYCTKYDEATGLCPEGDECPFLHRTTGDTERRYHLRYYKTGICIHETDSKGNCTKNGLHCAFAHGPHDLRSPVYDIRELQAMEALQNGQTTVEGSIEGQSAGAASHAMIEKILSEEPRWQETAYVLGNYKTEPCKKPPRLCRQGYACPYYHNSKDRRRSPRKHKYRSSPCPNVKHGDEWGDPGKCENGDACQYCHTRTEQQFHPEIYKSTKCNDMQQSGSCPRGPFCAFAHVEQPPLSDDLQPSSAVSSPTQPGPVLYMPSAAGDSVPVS
Oligonucleotide	bound/input enrichment
UAACCACAUCAAGAUGGUUGGGAAGCUGAAGCAGAACUUACUAUUGGCGUGUCUGGUGAUUAGUUCUGUGACCGUGUUUUACCUGGGCCAGCAUGCCAUGGAGUGCCAUCACCGGAUAGA	0.169 ratio
GAGCCCAGCCGGCAGUUUGUAAAGGACUCCAUUCGGCUGGUUAAAAGAUGCACCAAACCCGACAGAAAAGAAUUCCAGAAGAUUGCCAUGGCAACAGCUAUAGGAUUUGCUAUCAUGGGA	0.175 ratio
AACAGAUUGUCUUUAAGCAUUCCAAGCGAGAAUGCUGGGGUGAUCAUUGUUGCCCAUGUGCCUUCUGACUGAGCUUUAAUGCUGUUCCAUGUUACAUUGAUGUUCUUUUGCAUAUUUGUU	0.137 ratio
AGUGUGCAGGAAUUCAUGACCUUUACAAGUCAACUGAUUGUGGAACGCUCGGGGAAAGGCACUAGAGCUUCUGUCAAAGAACAAGAGUAUCUUUGCCACGUCUACGUCCGGAGCGACAGU	0.0941 ratio
CUUAAUGAUAUUUUGAGUGAAUAAAUGAAGCUAAAAUGUCUGCUUUUGGUACAACACGCAUUAAUAAAAGGUUAAGUUUUGUUUUCCCUCCACUGAAUAUUUAACAUCUCAGAAAAAAAC	0.144 ratio
GAUCAUGAACCACCAUCAGAAAUGAAGGAUGAGACUACCAGACGAGCCCAAAACCGCGCGCUACAGAAAAGUAAACUUAACCUUGCAGAGUUCCUUAAUGAAGAUACAAGUUAAGAGAGC	0.144 ratio
GACUUUGGGACUGGUCCUCGUAAUGCAGCCUUCUAUAGCCCUCAUGGACAUAUAUUAGUGCUGGCUGGAUUUGGAAAUCUUCGAGGACAAAUGGAAGUAUGGGAUGUUAAAAACUACAAG	0.369 ratio
CUGGCCUUCUGAGCAUCAGGGGCCUCCUUUCGUAUAGUCACUGCUUCUGCAUCAGAUACUUUCAGCUGCAACUCCCUACUGGGUGGGGCACCCAUUUCAGGCAGAAGUUGGUGCCCCCCU	0.0825 ratio

Sample 3
Target: ABI1, truncated, D143A, DHFR fusion (Arabidopsis thaliana)
Method: DHFR PCA, deep sequencing
Sample: yeast
Setting: methotrexate growth selection, single substitutions
Together with: (+)-ABA 0.032 µM
Baseline: wild-type fitted maximum
Reading: higher = stronger binding
Starting sequence: PYL1, truncated, DHFR fusion (Arabidopsis thaliana); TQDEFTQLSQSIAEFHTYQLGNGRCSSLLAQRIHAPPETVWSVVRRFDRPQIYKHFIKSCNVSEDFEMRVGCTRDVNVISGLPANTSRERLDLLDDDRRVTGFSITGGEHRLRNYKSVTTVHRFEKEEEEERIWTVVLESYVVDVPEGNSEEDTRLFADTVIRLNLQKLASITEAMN
Variant	relative binding score
S59Q	-2.08%
D3M	19.4%
E131T	51.1%
F103S	-1.98%
P83D	2.47%
F15H	13.5%
I105R	1.46%
T173W	-5.98%
T106E	13.2%
F103W	-2.76%
L20W	3.18%

Sample 4
Target: Ras GTPase-activating protein-binding protein 1, C-terminal RGG region (G3BP1, Homo sapiens, UniProt Q13283)
Chain of UniProt Q13283 (whole entry, looked up): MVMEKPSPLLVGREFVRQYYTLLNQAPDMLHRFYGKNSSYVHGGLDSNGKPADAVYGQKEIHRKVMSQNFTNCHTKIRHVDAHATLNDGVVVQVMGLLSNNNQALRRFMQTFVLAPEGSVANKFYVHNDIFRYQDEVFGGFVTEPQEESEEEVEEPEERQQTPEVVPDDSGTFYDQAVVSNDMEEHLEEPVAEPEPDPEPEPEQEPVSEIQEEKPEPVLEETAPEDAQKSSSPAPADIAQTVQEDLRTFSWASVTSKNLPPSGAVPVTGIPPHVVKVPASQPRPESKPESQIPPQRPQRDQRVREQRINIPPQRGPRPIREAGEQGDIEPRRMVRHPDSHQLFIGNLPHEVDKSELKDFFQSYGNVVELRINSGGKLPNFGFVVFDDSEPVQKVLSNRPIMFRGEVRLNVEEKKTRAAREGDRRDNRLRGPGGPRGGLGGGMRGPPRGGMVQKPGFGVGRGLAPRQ
Method: RNA Bind-n-Seq
Form: RNA
Sample: in vitro
Tested at: 1 µM
Setting: whole 134-nt RNA, ends assumed
Together with: 150 mM KCl
Baseline: input library
Reading: higher = stronger binding
Shared flanks, not repeated: GGGAGUUCUACAGUCCGACGAUC … UGGAAUUCUCGGGUGUCAAGG
Oligonucleotide	log2 enrichment
CCUGUGCUACACAUCGUAUGUACCGAAUCGGGGUUUUUUGGGUUUUUUGGGGUUUUUUGGGAAAGUAUUAUGUUACGCCGUUCGGAUCUG	-1.04
UCCUGUGCUACACAUCGUAUGUACCGAAUCGGGUUUUUUGGGUUUUUUGGUUUUUUGGGGAAAGUAUUAUGUUACGCCGUUCGGAUCUGC	-0.891
UGGCCCUGGUGGCAUGCGGGGAGGAAGAGGUGGCCUCAUGGCUCGUGGUGGUCCCGGUGGAAUGUUCAGAGGUGGCCGUGGUGGAGACAG	1.34
CCCUGUGGGCCUUGCUCAGAGCGGAGAAAGCAUUUGUUUGUACAAGAUCCGCAGACGUGUAAAUGUUCCUGCAAAAACACAGACUCGCGU	-1.53
AAGUCCUGUGCUACACAUCGUAUGUACCGAAUCGGCCCCGGGGCCCCGGGCCCCGGGAAAGUAUUAUGUUACGCCGUUCGGAUCUGCACU	-2.29
GCAGGAAGUAAAAACAAAUGGAAAUGCUUCGGAUAGUGGCAGGGGUGGGGGUUGCUAAGGAAAGGGUGGGAUGGGAGUGGGUAGAGAGUU	0.552
AAGUCCUGUGCUACACAUCGUAUGUACCGAAUCGGGUUUGGGUUUGGGUUUUUGGGAAAGUAUUAUGUUACGCCGUUCGGAUCUGCACUU	1.62
UGGGAGGUGGAUUUUGUUUAUUUUUUUAGCUCAUUUACAGGGGUGGGAAUUUUUUUUUAAUAUGUGUCAUGAAUAAAGUUGUUUUUGAAA	3.04
UGGCCCUGGUGGCAUGCGGGGAGGAAGAGGUGGCCUCAUGGAUCGUGGUGGUUCCGGUGGAAUGUUCAGAGGUGGCCGUGGUGGAGACAG	1.44

For quick reference, copied from above (sample 3):
Variant	relative binding score
T106E	13.2%
F15H	13.5%
F103S	-1.98%
L20W	3.18%
I105R	1.46%
